Assay results from different studies.
Each line is one published result; not all experiments were run side by side. “And” joins repeats or separate records; there may be more than shown.
Cell line: HL-60

Cc1cc(C=O)cc(C)c1Oc1cc(Nc2ccc(C#N)cn2)nc2cnccc12 — IC50 (48 h): > 126 µM
COc1c(O)cc2oc3c(Cl)c(O)c(CC=C(C)C)c(O)c3c(=O)c2c1CC=C(C)C — IC50 (cell growth or viability; 48 h): > 40 µM
CNC(=S)SC[C@@H]1C(=O)O[C@H]2[C@H]1CC/C(C)=C/CC[C@@]1(C)O[C@@H]21 — IC50 (cell growth or viability, MTT; 72 h): 13.4 µM
O=C1c2ccc(O)cc2OC1(O)Cc1ccc(O)c(O)c1 (centres unmarked) — IC50 (cell growth or viability, MTT; 72 h): 42.5 µM
COc1c(OCc2ccccc2)cc2oc3cc(OCc4ccccc4)c(CC=C(C)C)c(O)c3c(=O)c2c1CC=C(C)C — IC50 (cell growth or viability; 48 h): 5.96 µM
CC(C)(C)c1ccc2[c](c1)[Au-]1([Cl])[c]3cc(C(C)(C)C)ccc3-c3cncc-2[n+]31 — IC50 (cell growth or viability, MTS): 3.71 µM
CCCN(CCC)C(=S)SC[C@@H]1C(=O)O[C@H]2[C@H]1CC/C(C)=C/CC[C@@]1(C)O[C@@H]21 — IC50 (cell growth or viability, MTT; 72 h): 20.7 µM
COc1c(O)c(Br)c2oc3c(Br)c(O)c(CCC(C)C)c(O)c3c(=O)c2c1CCC(C)C — IC50 (cell growth or viability; 48 h): 14.9 µM
CC1=C(Cn2c3cccc(=O)c-3nc3ccccc32)CCC(C)(C)C1 — IC50 (cell growth or viability, CCK-8; 72 h): 0.36 µM
S=C(S)NCc1cccnc1 — IC50 (cell growth or viability, MTT; 72 h): 4.1 µM
O=C1c2ccc3c4cccc5cccc(c6ccc(c2c36)C(=O)N1CCN1CCCCC1)c54 — IC50 (cell growth or viability, SRB; 72 h): 43.4 µM
COc1c(O)cc2oc3cc4c(c(O)c3c(=O)c2c1CC=C(C)C)C=CC(C)(C)O4 — IC50 (cell growth or viability; 48 h): 13.7 µM
CSC(=S)NCc1cccnc1 — IC50 (cell growth or viability, MTT; 72 h): 5.7 µM
COc1c(O)cc2oc3cc4c(c(O)c3c(=O)c2c1CCC(C)(C)O)CCC(C)(C)O4 — IC50 (cell growth or viability; 48 h): > 40 µM
O=C1c2ccc3c4ccc5c6c(ccc(c7ccc(c2c37)C(=O)N1CCN1CCCCC1)c64)C(=O)N(CCN1CCCCC1)C5=O — IC50 (cell growth or viability, SRB; 72 h): 86.2 µM
C/C1=C\CC[C@@]2(C)O[C@H]2[C@H]2OC(=O)[C@@H](CSC(=S)N3CCN(CCO)CC3)[C@@H]2CC1 — IC50 (cell growth or viability, MTT; 72 h): 5.5 µM
CC(C)=CCn1c2cccc(=O)c-2nc2ccccc21 — IC50 (cell growth or viability, CCK-8; 72 h): 2.59 µM
COc1ccc(CCCN[C@@H]2CCC[C@H]2CN[C@@H]2CCC[C@H]2CNCCCCN[C@H]2CCC[C@@H]2CN)cc1 — IC50 (cell growth or viability, resazurin; 96 h): 49 µM
CC1=C(Cn2c3ccc(Cl)c(=O)c-3nc3ccccc32)CCC(C)(C)C1 — IC50 (cell growth or viability, CCK-8; 72 h): 0.23 µM
COc1cccc2c(=O)c3c(NCCCCCCC(=O)Nc4ccccc4N)ccc([N+](=O)[O-])c3[nH]c12 — IC50 (cell growth or viability, MTT; 72 h): 1.46 µM
Cc1cc(/C=C/C#N)cc(C)c1Oc1cc(Nc2ccc(C#N)cn2)nc2ccncc12 — IC50 (48 h): > 120 µM
CCN(CC)CCN1C(=O)c2ccc3c4cccc5cccc(c6ccc(c2c36)C1=O)c54 — IC50 (cell growth or viability, SRB; 72 h): 5.5 µM
CCNC(=O)Nc1ccc(S(=O)(=O)Oc2ccccc2CC)cc1 — IC50 (cell growth or viability, MTT; 48 h): 10 µM
CC#N.[Ru+2].c1ccc(-c2cccc(-c3ccccn3)n2)nc1.c1ccc(-c2ccccn2)nc1 — IC50 (cell growth or viability; dark): > 100 µM
COc1c(O)cc2oc3c(Br)c(O)c(CCC(C)C)c(O)c3c(=O)c2c1CCC(C)C — IC50 (cell growth or viability; 48 h): 14.6 µM
Cc1cc(C#N)cc(C)c1Oc1cc(Nc2ccc(C#N)cc2)nc2cnccc12 — IC50 (48 h): > 128 µM
Cc1cccc2c(=O)c3c(NCCCCCC(=O)Nc4ccccc4N)ccc([N+](=O)[O-])c3[nH]c12 — IC50 (cell growth or viability, MTT; 72 h): 1.1 µM
[Ru+2].c1ccc(-c2cccc(-c3ccccn3)n2)nc1.c1ccc2nc(-c3ccc4ccccc4n3)ccc2c1.c1cnccn1 — IC50 (cell growth or viability; dark): ~30 µM and 34.6 µM
COc1c(O)cc2oc3cc(O)c4c(c3c(=O)c2c1CCC(C)(C)O)OC(C)(C)CC4 — IC50 (cell growth or viability; 48 h): > 40 µM
C/C1=C\CC[C@@]2(C)O[C@H]2[C@H]2OC(=O)[C@@H](CSC(=S)NCCN(C)C)[C@@H]2CC1 — IC50 (cell growth or viability, MTT; 72 h): 24.7 µM
CC(C)=CCc1c(O)cc2oc3cc(O)c(O)c(CC=C(C)C)c3c(=O)c2c1O — IC50 (cell growth or viability; 48 h): 7.39 µM
C/C1=C\CC[C@@]2(C)O[C@H]2[C@H]2OC(=O)[C@@H](CSC(=S)N(C)Cc3cccnc3)[C@@H]2CC1 — IC50 (cell growth or viability, MTT; 72 h): 20.5 µM
Cc1cc(/C=C/C#N)cc(C)c1Oc1cc(Nc2ccc(C#N)cn2)nc2cnccc12 — IC50 (48 h): > 120 µM
C/C1=C\CC[C@@]2(C)O[C@H]2[C@H]2OC(=O)[C@@H](CSC(=S)N(C)c3ccccn3)[C@@H]2CC1 — IC50 (cell growth or viability, MTT; 72 h): 38.9 µM
Cc1cc(C#N)cc(C)c1Oc1cc(Nc2ccc(C#N)cn2)nc2cnccc12 — IC50 (48 h): > 127 µM

Repeated from above:
CC1=C(Cn2c3cccc(=O)c-3nc3ccccc32)CCC(C)(C)C1 — IC50 (cell growth or viability, CCK-8; 72 h): 0.36 µM
Cc1cc(C#N)cc(C)c1Oc1cc(Nc2ccc(C#N)cn2)nc2cnccc12 — IC50 (48 h): > 127 µM
